Published values from different studies.
Parts stem from different laboratories: compare values within a part only. Substitutions count along the parent as printed.

Series 1 — method: DHFR PCA, deep sequencing; medium: yeast; with: (+)-ABA 2500 µM; relative to: wild-type fitted maximum; direction: higher = stronger binding; measurement: relative binding score
Target: ABI1, truncated, D143A, DHFR fusion (Arabidopsis thaliana)
Notes: methotrexate growth selection, single substitutions
Starting sequence: PYL1, truncated, DHFR fusion (Arabidopsis thaliana); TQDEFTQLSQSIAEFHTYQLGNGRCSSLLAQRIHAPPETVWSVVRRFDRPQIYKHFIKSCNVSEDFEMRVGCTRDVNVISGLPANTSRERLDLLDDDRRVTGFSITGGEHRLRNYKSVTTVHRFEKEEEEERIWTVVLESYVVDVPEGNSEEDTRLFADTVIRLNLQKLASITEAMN
N61D: 94.8%
F66P: 91.7%
N22W: 99.1%
R74T: 6.81%
E131V: 99.3%
T1A: 101%
K116L: 65%
A175E: 94.2%
I52G: 91.8%
T6M: 108%
A170Q: 98.4%
R24K: 97.6%
H110S: 87.2%
P146H: 71.9%
L28W: 94.3%
N22A: 101%
G81R: 66.3%
N114C: 91.6%
L156V: 97.8%
S117F: -3.05%
R32F: 76.4%
R49S: 96.1%
D48W: 73.8%

Series 2 — method: RNA Bind-n-Seq; molecule type: RNA; medium: in vitro; tested at: 365 nM; relative to: no-protein control; direction: higher = stronger binding; measurement: RBNS enrichment (R)
Target: RNA binding protein fox-1 homolog 2, RRM domain, GST-SBP tag (RBFOX2, Homo sapiens, UniProt O43251-10, residues 100-194)
Notes: natural RNA segment, single round, ends assumed
Construct (chain): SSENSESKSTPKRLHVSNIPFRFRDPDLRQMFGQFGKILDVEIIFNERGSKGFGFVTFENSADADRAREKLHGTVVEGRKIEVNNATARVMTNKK
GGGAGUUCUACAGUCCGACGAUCUGAUUGCUCUUAGGUGAGUUCCGAGUCUUAAUCUAUGCAUUCAGAGAAAUAUUUUUAUAUGCGUUGUGUAAUUUAUAACAAGGGGUUUUCUUUUAGGCUUUGUUAACUGAUGGAAUUCUCGGGUGCCAA: 0.484
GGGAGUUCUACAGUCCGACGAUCCUAACUCCUAACUAACCAGCUCGCAGUGCGCUGCAGCCUUCCUUUUACCUUCAGCUGUCUCAGGAAGACCUUGCUGUCCCAGAGUGUACUGAGAGCAUCACUAUCAGGCAUGGAAUUCUCGGGUGCCAA: 2.78
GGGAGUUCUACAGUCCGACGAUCCCUAGAAGGUUUAUACUGCCUUCUUGCUUUAAAGCAAUUGGUCUAAAAUAUAUGUAAUCGUCUUAAUUAAAACGUUGCAGUAGGGUUGCUUUUAGAGUAUUAUUUUUUUGUGGAAUUCUCGGGUGCCAA: 0.621
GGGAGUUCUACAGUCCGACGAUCGGGCAGCUCUGGCUAGAUGCCUAUCUUCACCAAUAACAACAGCCACCCUGCCCAGUCUGGAAGAAGAGGAGGAAGACUCUGGAGCCAAGGCAGAGGGGAGCUUGAGGGACUGGAAUUCUCGGGUGCCAA: 0.521
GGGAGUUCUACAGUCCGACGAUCUUUGUUUUAACUGUGGAUUUAUUGAUUGCUAACCUCUACAGAUAUGAUGAUAGGGCAAGCAUUCUUCUAAUCGAUUUUAAUUGUCCUUUGUGUGAAAAACAAAACAAAACUGGAAUUCUCGGGUGCCAA: 0.785
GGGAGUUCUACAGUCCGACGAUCUGCUCCAGCCAGGGCCCCUGCGCUUCCUGUGCAGACAGGAAGCUGUGUGGGAGACUGUCAUUUGGGAAUUUGAUUUUUUUUUUUCUGUACGAAUUUAAAAAAAAAAGAAAUGGAAUUCUCGGGUGCCAA: 0.491
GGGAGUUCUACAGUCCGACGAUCCCUGUUGGCUCACAGGGCUGAAAGGGGCUUUUGUCCUCCUGGGUCAGGGAGAACGCGGGGACCCCAGAAAGGUCAGCCUUCCUGAGGAUGGGCAACCCCCAGGUCUGCAGUGGAAUUCUCGGGUGCCAA: 0.415
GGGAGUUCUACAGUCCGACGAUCGCUCCACCUGUUCAGGAGCUGAAGCCCAUGCUUUCCCACCAGCAUGUCACUCCCAGACCACCUCCCUGCCCUGUCCUCCAGCUUCCCCUCGCUGUCCUGCUGUGUGAAUUUGGAAUUCUCGGGUGCCAA: 1.01
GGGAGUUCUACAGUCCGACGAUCCAGAAUUCAACAUUAAAGAUUAAUGUUUAUUUAAACGAACACAUUCCUGCAUUCAGGAUGUGAGGCCAUUUAAUAAAAAGGGCACAAAGCCUGUCAGAGUUUUCAACGGUUGGAAUUCUCGGGUGCCAA: 0.403
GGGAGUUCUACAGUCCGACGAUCAACAAGAAGAAAACCAACCCAAACCAGUGAAGUUUUUUAGAACCUUUAGAAGGGUGGUCUUUAUUCAGGUUUUACUGUAAUGGUAAGGAUUGACUCAAGAGACAGUAUUAUGGAAUUCUCGGGUGCCAA: 0.399
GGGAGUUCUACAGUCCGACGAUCCCUCAGGCAGGGAUGGUGCUUGAGGCUGGGUGCAGAGAUAUGCCUGCAUGGCUCUCUUGUAGCCAAAGGUGGGGAGAUUCUGCGUGGGAGAACUUGGUGUCUCACCCUGGUGGAAUUCUCGGGUGCCAA: 0.58
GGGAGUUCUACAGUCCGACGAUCGAGAGCAGUGAUGCGGAUGGGUACCCGGGCACACCAGCCCUCAGAGACCUGAGCUCUUCUGGCCACGUGGAACCUCGAACCCGAGCUCCUGCAGAAGUGGCCCUGGAGAUUGGAAUUCUCGGGUGCCAA: 0.312

Series 3 — method: protein binding microarray; molecule type: double-stranded DNA, one strand shown; medium: in vitro; tested at: not given; relative to: not given; direction: higher = stronger binding; measurement: E-score
Target: Histone acetyltransferase KAT6A, winged helix 2, GST fusion (KAT6A, Homo sapiens, UniProt Q92794, residues 85-181)
Notes: 8-mer, flanks averaged, mean of 2 arrays, mostly near background
Residues (chain): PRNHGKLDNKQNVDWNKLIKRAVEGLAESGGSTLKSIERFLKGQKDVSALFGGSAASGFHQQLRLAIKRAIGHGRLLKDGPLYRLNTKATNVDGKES
TCACACCA: 0.00287
CCACACCA: 0.0796
CCTCTGAC: 0.0981
CATGTGTC: -0.158
CGGCCTAA: 0.00729
GGATCAAC: 0.0544
CTCCATTC: -0.045
AATAGGAC: -0.231
CCTGATAC: 0.0756
GCTCATGA: 0.0544
ACAAATGA: -0.0455
CCCGCAGA: 0.18
AGGAAGTA: -0.0732
TGTTTTAA: 0.21
AAGGCGTA: -0.0598
ATAAAGCA: 0.0212
CAAAACAG: -0.0254
CGCTCTGA: 0.0673
AAGCTTCC: -0.0267
GAGTACTC: 0.123
GAGCACTC: -0.0122
CGCCGTAA: 0.0331
TCATCTCA: -0.0747
ACTGTACC: -0.188
GAGGCGGC: 0.285

Series 4 — target: CREB3L1, bZIP domain (human); method: DHFR protein complementation; medium: yeast; relative to: wild-type JUN-FOS pair; direction: higher = stronger binding; measurement: binding fitness
Notes: single substitutions, most at no-binding floor
Starting sequence: JUN, bZIP domain (human); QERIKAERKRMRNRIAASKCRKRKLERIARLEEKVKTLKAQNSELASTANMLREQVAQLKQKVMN; partner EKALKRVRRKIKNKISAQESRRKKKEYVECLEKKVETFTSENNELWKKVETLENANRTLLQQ
V56D: -1.63 natural log
L59P: -1.42 natural log
Q41G: -1.48 natural log
Q41A: -1.3 natural log
I28D: -1.52 natural log
K34W: -1.11 natural log
S47Q: -1.22 natural log
L31W: -1.47 natural log
S47I: -1.36 natural log
L45N: -1.46 natural log
R53D: -1.42 natural log
I28A: -1.39 natural log
Q55H: -1.34 natural log
T48V: -1.35 natural log
K39W: -1.46 natural log
E33N: -1.43 natural log

Series 5 — target: CCNA2, cyclin fold, Cln2 fusion (human); method: yeast growth competition, sequencing; medium: yeast; notes: strong parent motif; relative to: not given; direction: higher = stronger binding; measurement: normalised enrichment score
Starting sequence: PKMYT1 docking peptide (human); SFEPRNLLSLFED
P4A: 0.116
P4L: -0.61
E3F: 3.22
E12Q: 2.06
S9Q: 2.16
F2P: -0.535
L10E: 3.08
R5V: 0.932
N6Q: 0.842
L10D: 2.21
E12V: 2.14
L10W: 2.32
S9N: 1.94
S1L: 3.92

Repeated from above (series 3):
TCATCTCA: -0.0747
TCACACCA: 0.00287
TGTTTTAA: 0.21
CAAAACAG: -0.0254
ATAAAGCA: 0.0212
CGCTCTGA: 0.0673
CCCGCAGA: 0.18
GCTCATGA: 0.0544
CCACACCA: 0.0796
GAGTACTC: 0.123
CCTGATAC: 0.0756
ACTGTACC: -0.188
